Results pooled from the literature.
Lines come from different studies, so protocols differ. Values joined by “and” are separate records of one study, mostly repeats; a detail may differ.

| SMILES | target or system | assay | system | conditions | how to read | measurement | result |
| --- | --- | --- | --- | --- | --- | --- | --- |
| CCN(CC)CCCNC(=O)CSc1c2c(nc3cc(Cl)ccc13)CCCC2 | LDR | silenced CMV-GFP reporter derepression, qHTS |  |  |  | Emax | 63% |
| O=C(C[Se]C(=O)c1ccc2ccccc2c1)Nc1cccc(C(F)(F)F)c1 | NCI60 NSCLC subpanel | NCI60 five-dose screen |  |  |  | GI50 | 1.78 µM |
| COc1ccc(CNc2ccc3c(c2)S(=O)(=O)C=C3)cc1 | U-87 MG, temozolomide-resistant |  |  | 5 µM, 24 h | reference: control | MCP-1 secretion | 50% |
| COC(=O)c1cc(NC2=NC(=O)C(=Cc3ccc(N(C)C)cc3)S2)ccc1OC(C)=O | MCF7 | GC-MS, refers to: Trimethylamine |  | 1 µM | reference: DMSO | metabolite level | -0.53 fold change |
| COc1cccc(/C=N/Nc2nc(Nc3ccccc3)nc(-n3nc(C)cc3C)n2)c1O | LDR | silenced CMV-GFP reporter derepression, qHTS |  |  |  | efficacy | 83% |
| COC1CN([C@H]2CC[C@H]([C@@]3(C)Oc4c(Cl)cc(C(=O)NCc5c(SC)cc(C)[nH]c5=O)c(C)c4O3)CC2)C1 |  | RNA-seq, refers to: NLRP6 | human, whole blood | dose not given, 24 h | reference: pretreatment baseline | log2 fold change | 1.32 |
| C(=N\Nc1nc(-c2ccccn2)nc2ccccc12)/c1ccccc1 | LDR | silenced CMV-GFP reporter derepression, qHTS |  |  |  | Emax | 202% |
| CC(C)c1ccc(N(C)c2ccc3c(c2)OCC[C@H]3CNc2cnccc2C(=O)O)cc1 | BICR18 | cell viability, CellTiter-Glo |  | 7 days |  | IC50 | 0.194 µM |
| Cc1c(Cc2ccc(OC(C)C(=O)O)cc2)c2ccc(C(=O)N[C@@H](C)c3ccc(C4CC4)cc3)cc2n1C (stereo partly shown) | Peroxisome proliferator-activated receptor gamma, ligand-binding domain (PPARG, Homo sapiens, UniProt P37231) | reporter gene, luciferase reporter | HEK293T, Gal4-PPARγ LBD |  |  | IC50 | 7.47 µM |
| O=C1CCP(=O)(c2ccccc2)CC1 | SW480 | MTT |  | 72 h | reference: IC50 HaCaT over IC50 SW480 | selectivity index | 1 |
| C=CC(=O)N1CCCC(n2c(=O)c3ncccc3n(Cc3ccc(Oc4ccccc4)cc3)c2=O)C1 (stereo not shown) | OCI-Ly7 | cell growth or viability, MTT |  | 72 h |  | IC50 | 5 µM |
| N=C(S)N/N=C/c1ncc(C(F)(F)F)cc1Cl | LDR | silenced CMV-GFP reporter derepression, qHTS |  |  |  | efficacy | 138% |
| Cc1cc(Cl)cc(-c2ccnc3cc(CN4C(=O)C5C(C4=O)C5(C)C)sc23)c1C[C@@H]1CNCCO1 (stereo partly shown) | CHP-212 | SRB |  | 0.3125 µM |  | viability | 51.2% |
| CN1CCCNC(=O)c2cccc(c2)C(=O)NCCCN(C)CCCNc2cccc3c2C(=O)c2cccc(c2C3=O)NCCC1 | SAS | RNA-seq, refers to: NAV1 mRNA |  | 1 µM, 6 h | reference: untreated cells | log2 fold change | -0.82 |
| Cc1ccc(-n2cc(CSc3nc4ccccc4n3Cc3cn(-c4ccc(C)cc4)nn3)nn2)cc1 | MDA-MB-231 | MTT |  | 62.5 ppm |  | cytotoxicity | 87.8% |
| Cc1cc(NC2CCN(C)CC2)ccc1-c1cc2c(N3CCC[C@H](C(=O)Nc4cccc(Cl)c4)C3)ncnc2[nH]1 | NCI-H2228 | cell growth or viability, MTT |  | 0.2 µg/mL, 72 h |  | inhibition | 63.1% |
| Cn1ncc2cc(-c3cncc(Cl)c3N3CCC4(CCNC4=O)CC3)ccc21 | LS174T | gene expression, microarray, refers to: MFN2 mRNA |  | concentration not given, 24 h | reference: untreated cells | log2 fold change | -2.1 |
| CC(C)(O)c1ccn2c(-c3ccc(F)c(-c4ccc(F)cc4C#N)c3)cnc2c1F | HEK-293T stably expressing GABAA receptors | quantitative RT-PCR, refers to: α1 G251D, β2, γ2 subunits |  | 5 µM, 24 h, added: hispidulin 10 µM |  | mRNA level | no effect |
| Cc1ccc(/C=N/N=C(\S)Nc2cccc(S(=O)(=O)N(C)C)c2)o1 | LDR | silenced CMV-GFP reporter derepression, qHTS |  |  |  | EC50 | 3.98 µM |
| C=C(NC(=O)c1csc(-c2ccc(NC(=O)CCCCCBr)cc2)n1)C(=O)NC(=C)C(=O)OC | PC3-TxR | cell growth or viability |  |  |  | EC50 | 9.4 µM |
| Cc1cc(NC2CCN(C)CC2)ccc1-c1cc2c(N3CCC[C@H](C(=O)Nc4ccc(C(F)(F)F)cc4)C3)ncnc2[nH]1 | NCI-H2228 | cell growth or viability, MTT |  | 0.04 µg/mL, 72 h |  | inhibition | 61.5% |
| CC[C@@H](C)[C@@H](NC(=O)[C@@H](Cc1ccc(O)cc1)NC(=O)[C@H]1CCCN1C(=O)[C@@H](CCCNC(=N)N)NC(=O)[C@H](N)Cc1c[nH]cn1)C(=O)N[C@H](C)C(=O)N[C@H](Cc1c[nH]cn1)C(=O)NCC(=O)NCC(=O)NCC(=O)N[C@@H](CCCCNC(=O)CCCC[C@@H]1SC[C@@H]2NC(=O)N[C@@H]21)C(N)=O | HEK293T-GFP cells | flow cytometry |  | concentration not given, added: biotin-labelled peptide |  | binding rate | 0.22% and 0.19% and 0.24% |
| CN1CCN(C(=O)c2ccc(-c3cc4c(N5CCC[C@H](C(=O)NCc6ccc(OC(F)(F)F)cc6)C5)ncnc4[nH]3)cc2)CC1 | NCI-H2228 | cell growth or viability, MTT |  | 1 µg/mL, 72 h |  | inhibition | 81.9% |

| SMILES | target or system | assay | system | conditions | how to read | measurement | result |
| --- | --- | --- | --- | --- | --- | --- | --- |
| CCN(CC)CC(=O)Nc1cccc(-n2cc(-c3ccc4ccc(-c5cn(-c6cccc(NC(=O)CN(CC)CC)c6)nn5)cc4c3)nn2)c1 | RCC4 | PCR angiogenesis array, refers to: PLAU |  | 5 x IC50, 6 h, normoxia | reference: untreated | fold regulation | -2.8 |
| O=C(NCc1ccc(OC(F)(F)F)cc1)[C@H]1CCCN(c2ncnc3[nH]c(-c4cc(F)c(F)c(F)c4)cc23)C1 | NCI-H2228 | cell growth or viability, MTT |  | 0.04 µg/mL, 72 h |  | inhibition | -3.12% |
| CC(=O)NCCCN(C)CCCNc1cccc2c1C(=O)c1cccc(NCCCN(C)CCCNC(C)=O)c1C2=O | SAS | RNA-Seq, refers to: RBM43 mRNA |  | 1 µM, 6 h | reference: untreated cells | log2 fold change | -3.2 |
| Cc1ncsc1-c1ccc(C(C)NC(=O)C2CC(O)CN2C(=O)C(NC(=O)CCCCCCCCCCN2CCCC(Nc3ncc(Cl)c(Nc4ccccc4S(=O)(=O)C(C)C)n3)C2)C(C)(C)C)cc1 (stereo not shown) | 22Rv1 | RNA-seq, refers to: NBPF20 mRNA |  | concentration not given | reference: DMSO | log2 fold change | -2.31 |
| Cc1cc(NC2CCN(C)CC2)ccc1-c1cc2c(N3CCC[C@H](C(=O)Nc4ccc(C#N)cc4)C3)ncnc2[nH]1 | NCI-H2228 | cell growth or viability, MTT |  | 0.04 µg/mL, 72 h |  | inhibition | 60.7% |
| Cc1c(Cl)cccc1Nc1ccccc1C(=O)[Se]CC(=O)Nc1cccc(C(F)(F)F)c1 | NCI60 renal subpanel | total growth inhibition, inhibitor |  | five-dose |  | mean TGI | 3.39 µM |
| COc1ccccc1-c1ccncc1C(=O)Nc1nnc(OCc2ccc(Cl)cc2)s1 | DLD-1 BRCA2-knockout | immunofluorescence |  | 10 µM, 96 h, >5 foci per nucleus |  | γH2AX foci-positive nuclei | 58.4% and 57.3% and 58.1% |
| Cn1cc(-c2cc3c(N4CCC[C@H](C(=O)NCc5ccc(OC(F)(F)F)cc5)C4)ncnc3[nH]2)cn1 | NCI-H2228 | cell growth or viability, MTT |  | 0.04 µg/mL, 72 h |  | inhibition | 56.1% |
| O=C(C[Se]C(=O)c1cccnc1Nc1cccc(C(F)(F)F)c1)Nc1cccc(C(F)(F)F)c1 | LNCaP | caspase 3/7 |  | 10 µM, 24 h |  | late apoptotic/dead cells | 35.7% |
| COc1ccc2c(c1)OC1=C(C(=O)CCC1)C2c1c[nH]c2ccccc12 (stereo not shown) | 3T3-L1 adipocytes | qPCR, refers to: adiponectin |  | IC20, 14 days | reference: untreated mature adipocytes | mRNA level | increased |
| Cc1cc(-c2ccnc3cc(O)ccc23)ccc1O | HEK-Blue TLR8 cells | TLR8 activation |  | 80 nM, added: ssRNA40 2.5 µg/mL |  | inhibition | inhibited |
| Cc1sc2c(c1C)C(c1ccc(Cl)cc1)=N[C@@H](CC(=O)NCC(=O)N1CCC3(CCC(C(=O)N4CCN(C(=O)c5cc(Cc6n[nH]c(=O)c7ccccc67)ccc5F)CC4)CC3)CC1)c1nnc(C)n1-2 | NCI-H82 |  |  | 1000 nM, 24 h |  | cells in G1 phase | 10% |
| O=C(C[Se]C(=O)c1ccccc1Nc1cccc(C(F)(F)F)c1)Nc1cccc(C(F)(F)F)c1 | NCI60 renal subpanel | cell growth |  | 10 µM, 48 h, one-dose |  | mean growth percent | -92% |
| CC(C)C[C@@H](NC(=O)[C@@H](CC(C)C)NC(=O)[C@@H](CC(=O)O)NC(=O)[C@@H](CC(C)C)NC(=O)[C@@H](CC(C)C)NC(=O)[C@@H](CC(C)C)NC(=O)[C@H](NC(=O)[C@@H](CC(=O)O)NC(=O)[C@H](NC(=O)[C@H]1CCCN1C(=O)[C@@H](Cc1ccccc1)NC(=O)[C@@H](CC(C)C)NC(=O)[C@@H](CC(C)C)NC(=O)[C@@H](CC(=O)O)NC(=O)[C@@H](CC(C)C)NC(=O)[C@@H](Cc1ccc(O)cc1)NC(=O)[C@@H](C)NC(=O)[C@@H](CCCNC(=N)N)NC(=O)[C@@H](Cc1c[nH]c2ccccc12)NC(=O)[C@H]1CCCN1C(=O)[C@@H](CC(N)=O)NC(=O)[C@@H](CCC(N)=O)NC(=O)[C@@H](CC(=O)O)NC(=O)[C@@H](CC(=O)O)NC(=O)[C@@H](CSC1CC(=O)N(CCNC(=O)CN2CCN(CC(=O)O)CCN(CC(=O)O)CC2)C1=O)NC(=O)[C@@H](C)N)[C@H](C)O)[C@H](C)O)C(=O)N[C@H](Cc1c[nH]c2ccccc12)C(=O)O (stereo partly shown) [fluorine-18 labelled] |  |  | male nude mice, LNCaP xenograft, tumor | intravenous, 1 h |  | tissue uptake | 3.04 %ID/g |
| CC(C)Cn1cc(Cc2cccc(OC(C)(C)C(=O)O)c2)c2ccc(C(=O)N[C@@H](C)c3cc(F)cc(C(C)(C)C)c3)cc21 | PPARG (Homo sapiens, UniProt P37231) | ligand displacement, TR-FRET |  |  |  | IC50 | 0.008 µM |
| CO[C@@H]1[C@@H](OC(N)=O)[C@@H](O)[C@H](Oc2ccc3c(O)c(NC(=O)c4ccc(O)c(CC=C(C)C)c4)c(=O)oc3c2C)OC1(C)C | HCT-116 parental |  |  | 100 µM, replicate 1 |  | colony count | 19.5 |
| COc1cc(N2CCN(C(=O)C3CCCN3)CC2)ccc1Nc1ncc(Cl)c(Nc2ccccc2P(C)(C)=O)n1 (stereo not shown) | NCI-H3122 | CCK-8 |  | 2.5 nM, 48 h |  | viability | 88% |
| CC(=O)Oc1ccccc1C(=O)[Se]CC(=O)Nc1cccc(C(F)(F)F)c1 | NCI60 renal subpanel | cell growth, inhibitor |  | five-dose |  | GI50 | 1.64 µM |
| CCCCCCc1cccc([C@H](O)C[C@H](CO)NC(=O)CCCCCCCCCCBr)c1 | HeLa | CERT activity, HPLC-MS/MS lipidomics, refers to: ceramide 22 |  | 1 µM, 24 h, not cell-number normalised |  | ceramide level | 2030 pmol/sample and 1800 pmol/sample and 1600 pmol/sample |
| Cc1cc(NC2CCN(C)CC2)ccc1-c1cc2c(N3CCC[C@H](C(=O)N[C@@H](C)c4ccccc4)C3)ncnc2[nH]1 | NCI-H2228 | cell growth or viability, MTT |  | 0.04 µg/mL, 72 h |  | inhibition | 20.1% |
| CCN(C(=O)c1cc(F)ccc1Oc1nncnc1N1CCC2(C1)CN([C@H](CCCN(C)CCOC)C(C)C)C2)C(C)C | WSU-NHL | cell growth or viability |  | 72 h |  | GI50 | > 10 µM |
| CNS(=O)(=O)Nc1nccc(Cc2c(C)c3ccc(Oc4ncccc4F)cc3oc2=O)c1F | TT | cell viability, CellTiter-Glo |  | 7 days |  | IC50 | > 1 µM |
| Cc1nn(C)cc1-c1cc2c(N3CCC[C@H](C(=O)NCc4ccc(OC(F)(F)F)cc4)C3)ncnc2[nH]1 | NCI-H2228 | cell growth or viability, MTT |  | 0.2 µg/mL, 72 h |  | inhibition | 66.2% |
